Published values of several laboratories.
Parts stem from different laboratories: compare values within a part only.
Chain of UniProt Q04912 (whole entry, looked up): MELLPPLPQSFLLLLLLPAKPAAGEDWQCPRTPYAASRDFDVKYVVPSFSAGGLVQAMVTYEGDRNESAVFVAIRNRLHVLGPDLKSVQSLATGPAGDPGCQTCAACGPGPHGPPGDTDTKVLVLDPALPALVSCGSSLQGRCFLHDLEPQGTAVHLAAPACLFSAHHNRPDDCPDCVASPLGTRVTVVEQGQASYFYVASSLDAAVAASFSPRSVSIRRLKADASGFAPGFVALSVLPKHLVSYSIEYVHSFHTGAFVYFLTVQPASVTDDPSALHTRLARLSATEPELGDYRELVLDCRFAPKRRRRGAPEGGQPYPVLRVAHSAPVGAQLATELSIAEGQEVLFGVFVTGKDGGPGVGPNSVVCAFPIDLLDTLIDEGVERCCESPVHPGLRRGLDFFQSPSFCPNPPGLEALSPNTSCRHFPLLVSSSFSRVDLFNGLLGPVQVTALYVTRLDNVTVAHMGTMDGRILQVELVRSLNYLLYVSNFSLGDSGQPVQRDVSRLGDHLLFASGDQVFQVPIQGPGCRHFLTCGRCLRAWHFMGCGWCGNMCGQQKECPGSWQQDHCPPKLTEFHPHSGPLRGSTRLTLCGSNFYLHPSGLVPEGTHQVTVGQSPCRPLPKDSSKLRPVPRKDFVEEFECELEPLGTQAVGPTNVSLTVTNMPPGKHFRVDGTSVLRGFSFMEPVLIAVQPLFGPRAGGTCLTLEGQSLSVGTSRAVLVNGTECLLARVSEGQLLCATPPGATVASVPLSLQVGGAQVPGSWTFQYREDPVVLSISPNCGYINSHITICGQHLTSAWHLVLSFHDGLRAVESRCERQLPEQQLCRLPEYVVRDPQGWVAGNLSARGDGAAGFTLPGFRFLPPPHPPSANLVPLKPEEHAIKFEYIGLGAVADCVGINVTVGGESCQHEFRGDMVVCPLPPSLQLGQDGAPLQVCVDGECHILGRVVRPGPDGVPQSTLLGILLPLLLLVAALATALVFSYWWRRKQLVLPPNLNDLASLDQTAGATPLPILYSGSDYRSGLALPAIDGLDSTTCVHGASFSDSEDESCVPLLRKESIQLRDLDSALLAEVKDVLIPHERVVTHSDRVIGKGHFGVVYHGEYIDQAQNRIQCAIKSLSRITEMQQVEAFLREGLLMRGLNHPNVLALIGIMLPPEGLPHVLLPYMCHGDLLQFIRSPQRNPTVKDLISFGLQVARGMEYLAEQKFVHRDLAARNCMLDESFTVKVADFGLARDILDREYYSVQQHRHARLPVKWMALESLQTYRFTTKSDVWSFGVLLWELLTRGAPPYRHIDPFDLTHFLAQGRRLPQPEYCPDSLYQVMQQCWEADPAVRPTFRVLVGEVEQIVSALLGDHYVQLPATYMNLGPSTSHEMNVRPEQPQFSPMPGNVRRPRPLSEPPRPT
Chain of UniProt Q9UHD2 (whole entry, looked up): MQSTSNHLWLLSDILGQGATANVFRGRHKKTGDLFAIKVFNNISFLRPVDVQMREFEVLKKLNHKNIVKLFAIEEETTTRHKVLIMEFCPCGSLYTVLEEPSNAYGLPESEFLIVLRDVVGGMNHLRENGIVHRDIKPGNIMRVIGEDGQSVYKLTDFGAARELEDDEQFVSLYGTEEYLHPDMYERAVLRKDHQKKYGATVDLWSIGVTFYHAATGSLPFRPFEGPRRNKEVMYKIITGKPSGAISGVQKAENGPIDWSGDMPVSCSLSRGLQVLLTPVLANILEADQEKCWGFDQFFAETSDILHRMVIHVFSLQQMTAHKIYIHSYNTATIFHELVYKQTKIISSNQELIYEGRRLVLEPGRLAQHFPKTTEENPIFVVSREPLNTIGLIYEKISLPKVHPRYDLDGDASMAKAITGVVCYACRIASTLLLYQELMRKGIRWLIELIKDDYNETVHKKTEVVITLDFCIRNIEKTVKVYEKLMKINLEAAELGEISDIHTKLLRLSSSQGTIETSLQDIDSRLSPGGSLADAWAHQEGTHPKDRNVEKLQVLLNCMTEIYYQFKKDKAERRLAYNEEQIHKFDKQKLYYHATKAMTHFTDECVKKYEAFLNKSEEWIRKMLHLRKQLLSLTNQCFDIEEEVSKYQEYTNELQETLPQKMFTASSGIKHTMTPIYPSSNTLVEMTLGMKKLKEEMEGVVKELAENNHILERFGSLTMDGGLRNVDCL
Chain of UniProt Q00535 (whole entry, looked up): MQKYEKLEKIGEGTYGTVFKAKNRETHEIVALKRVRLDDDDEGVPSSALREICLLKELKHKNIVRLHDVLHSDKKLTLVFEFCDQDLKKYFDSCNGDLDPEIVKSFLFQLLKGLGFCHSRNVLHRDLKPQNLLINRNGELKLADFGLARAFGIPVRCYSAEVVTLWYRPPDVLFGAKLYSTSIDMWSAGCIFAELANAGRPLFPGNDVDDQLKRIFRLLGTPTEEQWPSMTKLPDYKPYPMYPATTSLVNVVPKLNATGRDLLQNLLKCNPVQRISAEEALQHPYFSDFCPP
Chain of UniProt Q13882 (whole entry, looked up): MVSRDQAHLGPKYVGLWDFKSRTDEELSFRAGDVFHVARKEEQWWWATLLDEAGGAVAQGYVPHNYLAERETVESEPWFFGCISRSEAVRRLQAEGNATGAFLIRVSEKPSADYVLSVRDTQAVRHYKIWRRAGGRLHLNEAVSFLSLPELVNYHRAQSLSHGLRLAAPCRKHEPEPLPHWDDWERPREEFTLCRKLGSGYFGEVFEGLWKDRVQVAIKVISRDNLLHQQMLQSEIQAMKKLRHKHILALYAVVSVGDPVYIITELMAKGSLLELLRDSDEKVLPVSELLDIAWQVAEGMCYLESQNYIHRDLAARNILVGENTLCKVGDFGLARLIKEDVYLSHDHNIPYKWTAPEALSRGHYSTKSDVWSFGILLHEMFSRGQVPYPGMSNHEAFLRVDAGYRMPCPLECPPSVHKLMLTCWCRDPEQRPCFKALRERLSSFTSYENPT
Chain of UniProt P52333 (whole entry, looked up): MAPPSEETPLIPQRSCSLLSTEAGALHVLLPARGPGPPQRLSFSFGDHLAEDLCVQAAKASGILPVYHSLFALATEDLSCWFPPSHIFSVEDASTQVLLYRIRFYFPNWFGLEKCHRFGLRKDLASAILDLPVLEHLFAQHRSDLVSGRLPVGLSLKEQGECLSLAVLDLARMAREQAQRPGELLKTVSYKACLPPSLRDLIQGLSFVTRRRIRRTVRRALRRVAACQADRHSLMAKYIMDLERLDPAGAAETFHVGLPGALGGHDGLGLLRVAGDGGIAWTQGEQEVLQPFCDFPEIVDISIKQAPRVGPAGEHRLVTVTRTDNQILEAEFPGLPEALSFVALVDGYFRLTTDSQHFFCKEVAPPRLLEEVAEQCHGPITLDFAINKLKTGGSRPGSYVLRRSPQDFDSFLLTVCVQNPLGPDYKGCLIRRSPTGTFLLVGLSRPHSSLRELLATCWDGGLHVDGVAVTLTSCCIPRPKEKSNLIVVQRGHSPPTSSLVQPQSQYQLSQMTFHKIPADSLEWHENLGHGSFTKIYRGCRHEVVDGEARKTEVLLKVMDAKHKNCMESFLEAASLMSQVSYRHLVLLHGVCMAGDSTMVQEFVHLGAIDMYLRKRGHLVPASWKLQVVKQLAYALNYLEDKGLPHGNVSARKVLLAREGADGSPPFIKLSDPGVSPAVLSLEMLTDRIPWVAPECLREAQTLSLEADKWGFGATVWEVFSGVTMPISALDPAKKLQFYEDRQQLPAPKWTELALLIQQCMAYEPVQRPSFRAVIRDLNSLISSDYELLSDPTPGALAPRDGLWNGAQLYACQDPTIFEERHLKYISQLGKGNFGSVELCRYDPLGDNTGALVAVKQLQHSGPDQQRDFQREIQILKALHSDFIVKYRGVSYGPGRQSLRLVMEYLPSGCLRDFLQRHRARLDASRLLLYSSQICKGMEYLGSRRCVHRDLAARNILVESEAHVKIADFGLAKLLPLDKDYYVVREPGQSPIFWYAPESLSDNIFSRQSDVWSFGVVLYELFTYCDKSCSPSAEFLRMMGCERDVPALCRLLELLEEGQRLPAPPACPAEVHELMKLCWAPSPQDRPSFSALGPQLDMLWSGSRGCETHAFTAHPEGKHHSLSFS
Chain of UniProt Q8TDR2 (whole entry, looked up): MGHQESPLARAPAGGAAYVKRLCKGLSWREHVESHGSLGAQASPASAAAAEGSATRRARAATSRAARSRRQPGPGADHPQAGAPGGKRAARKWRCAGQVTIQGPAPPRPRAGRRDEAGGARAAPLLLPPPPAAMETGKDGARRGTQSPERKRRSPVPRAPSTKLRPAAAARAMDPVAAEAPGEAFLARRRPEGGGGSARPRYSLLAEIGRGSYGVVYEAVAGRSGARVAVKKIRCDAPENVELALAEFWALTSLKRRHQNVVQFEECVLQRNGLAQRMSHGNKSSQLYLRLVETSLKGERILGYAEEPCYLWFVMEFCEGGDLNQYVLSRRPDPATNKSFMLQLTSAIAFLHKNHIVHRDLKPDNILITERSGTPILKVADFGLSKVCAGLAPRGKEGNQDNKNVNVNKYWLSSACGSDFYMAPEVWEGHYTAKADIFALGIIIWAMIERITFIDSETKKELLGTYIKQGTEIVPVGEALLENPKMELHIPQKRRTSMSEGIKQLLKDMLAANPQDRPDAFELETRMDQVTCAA
Chain of UniProt P06239 (whole entry, looked up): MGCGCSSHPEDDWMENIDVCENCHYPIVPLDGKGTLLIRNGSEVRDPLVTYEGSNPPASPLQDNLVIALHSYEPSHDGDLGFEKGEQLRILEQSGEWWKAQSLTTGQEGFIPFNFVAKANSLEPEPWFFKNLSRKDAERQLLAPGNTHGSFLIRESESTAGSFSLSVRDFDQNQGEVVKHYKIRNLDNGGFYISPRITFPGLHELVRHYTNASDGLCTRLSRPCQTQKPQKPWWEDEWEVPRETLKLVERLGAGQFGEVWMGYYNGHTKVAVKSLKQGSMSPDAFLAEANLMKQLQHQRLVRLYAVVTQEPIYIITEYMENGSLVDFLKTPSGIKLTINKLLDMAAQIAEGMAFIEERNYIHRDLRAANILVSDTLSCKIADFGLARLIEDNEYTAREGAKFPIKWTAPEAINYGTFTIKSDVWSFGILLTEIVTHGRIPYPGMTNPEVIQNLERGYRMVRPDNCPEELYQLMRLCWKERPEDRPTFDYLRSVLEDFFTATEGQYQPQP

Study 1
Target: Prothrombin, mature alpha-thrombin (F2, Homo sapiens, UniProt P00734)
Method: aptamer microarray, sandwich
Form: DNA with 2'F-ANA
Medium: in vitro
Tested at: 200 nM
Setting: whole 15-mer aptamer, many near background
Together with: Cy3 exosite-II aptamer, 400 nM
Direction: higher = stronger binding
Oligonucleotide: GGTTGGTGTGGTTGG
| Modification | mean fluorescence intensity [a.u.] |
| --- | --- |
| 2'F-ANA at 1 6 8 9 11 12 13 14 15 | 64.8 |
| 2'F-ANA at 1 2 3 4 5 6 7 9 11 14 | 49.9 |
| 2'F-ANA at 1 2 3 5 6 7 8 9 12 14 15 | 49.9 |
| 2'F-ANA at 1 2 4 8 15 | 171 |
| 2'F-ANA at 1 2 3 5 8 9 10 14 | 61.2 |
| 2'F-ANA at 1 2 3 7 8 9 10 13 | 64.3 |
| 2'F-ANA at 1 4 6 7 8 10 11 12 15 | 58 |
| 2'F-ANA at 3 4 8 11 | 611 |

Study 2
Target: Histone acetyltransferase KAT6A, winged helix 2, GST fusion (KAT6A, Homo sapiens, UniProt Q92794, residues 85-181)
Method: protein binding microarray
Form: double-stranded DNA, one strand shown
Medium: in vitro
Tested at: not given
Setting: 8-mer, flanks averaged, mean of 2 arrays, mostly near background
Relative to: not given
Direction: higher = stronger binding
Target sequence (chain): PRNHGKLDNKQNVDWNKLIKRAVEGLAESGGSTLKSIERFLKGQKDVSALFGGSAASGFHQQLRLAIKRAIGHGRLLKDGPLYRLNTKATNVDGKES
| Oligonucleotide | E-score |
| --- | --- |
| ATCCAGGC | 0.027 |
| CTTTTCAC | -0.0593 |
| CAAACGCC | -0.0538 |
| TCAATCCA | 0.00887 |
| ATCTTAAT | -0.0171 |
| TCGACAGA | -0.0889 |
| AGGCTCAA | -0.044 |
| CCCAACCC | -0.164 |

Study 3
SMILES: COc1cccc(CNC(=O)c2nc3scc(COCc4ccc(C(=O)O)cc4)c3c(=O)[nH]2)c1
Effect on: cell-free assay
Method: competition with immobilised ligand
Tested at: 1 µM
| target | remaining binding [%] |
| --- | --- |
| CDK5 (Homo sapiens, UniProt Q00535) | 95.7 |
| LRRK2 (Homo sapiens, UniProt Q5S007, G2019S) | 94.6 |
| PRKACB (Homo sapiens, UniProt P22694) | 91.1 |
| PRPF4B (Homo sapiens, UniProt Q13523) | 97.3 |
| BUB1 (Homo sapiens, UniProt O43683) | 70.2 |
| FLT3 (Homo sapiens, UniProt P36888, N841I) | 100 |
| PIK3CA (Homo sapiens, UniProt P42336, H1047L) | 100 |
| PTK6 (Homo sapiens, UniProt Q13882) | 82.5 |
| ALK (Homo sapiens, UniProt Q9UM73) | 92 |
| RIPK2 (Homo sapiens, UniProt O43353) | 100 |
| STK35 (Homo sapiens, UniProt Q8TDR2) | 93.6 |
| MAP3K5 (Homo sapiens, UniProt Q99683) | 97.8 |
| IGF1R (Homo sapiens, UniProt P08069) | 100 |

Study 4
Structure (SMILES): CCCCc1c(-c2ccc(O)cc2)[nH]c2nccnc12
Effect on: enzyme activity
Action: inhibitor
Tested at: 0.5 µM
Relative to: control
| target | remaining activity [%] |
| --- | --- |
| MST1R (Homo sapiens, UniProt Q04912) | 101 |
| TBK1 (Homo sapiens, UniProt Q9UHD2) | 82.1 |
| MAP3K5 (Homo sapiens, UniProt Q99683) | 99.3 |
| LCK (Homo sapiens, UniProt P06239) | 86.8 |
| CSNK1G2 (Homo sapiens, UniProt P78368) | 78.5 |
| JAK3 (Homo sapiens, UniProt P52333) | 92.2 |

Repeated from above (study 2):
| Oligonucleotide | E-score |
| --- | --- |
| CTTTTCAC | -0.0593 |
| CAAACGCC | -0.0538 |
| TCAATCCA | 0.00887 |
